Measured values from different studies.
Values joined by “and” are separate records of one study, mostly repeats; a detail may differ. ± marks the error that the study gave.

Compound | cell line | test | conditions | scale | quantity | result
Cc1ncsc1-c1ccc(C(C)NC(=O)C2CC(O)CN2C(=O)C(NC(=O)CCCCCCCCCCN2CCCC(Nc3ncc(Cl)c(Nc4ccccc4S(=O)(=O)C(C)C)n3)C2)C(C)(C)C)cc1 (stereo not drawn) | 22Rv1 | RNA-seq, refers to: PHOSPHO2 mRNA | concentration not given | relative to: DMSO | log2 fold change | -1.64
N#C[C@@H]1CCCN1C(=O)CNC(=O)c1ccnc2ccc(OCCCN3CCN(C(=O)CCc4ccc5c(c4)CN4CCN6CC(=O)[O][68Ga-]([O]C(=O)C4)([O]5)[O]c4ccc(CCC(=O)N5CCN(CCCOc7ccc8nccc(C(=O)NCC(=O)N9CCC[C@H]9C#N)c8c7)CC5)cc4C6)CC3)cc12 | HT1080 cells expressing human FAP | – | 120 min, 37 °C | – | internalized fraction | 80.9 ± 1.7%
CCN(CC)CC(=O)Nc1cccc(-n2cc(-c3ccc4ccc(-c5cn(-c6cccc(NC(=O)CN(CC)CC)c6)nn5)cc4c3)nn2)c1 | RCC4 | PCR angiogenesis array, refers to: ANG | 5 x IC50, 2 h, normoxia | relative to: untreated | fold regulation | -1.11
Cc1ccncc1.[Cl-].[Cl-].[Ru+2].c1cc(-c2ccc3cccnc3n2)nc(-c2ccc3cccnc3n2)c1.c1ccc2cc3nc4c5cccnc5c5ncccc5c4nc3cc2c1 | SK-MEL-28 | – | light 633 nm | relative to: dark EC50 over light EC50 | phototherapeutic index | 153
C[C@@H]1CC[C@@H]([C@@](C)(O)Cn2ccnc2)[C@H](OCc2ccccc2)C1 | A2780 | cell growth or viability, MTT | 30 µM, 72 h | – | inhibition | 49.5%
CCCCCCCCCCCCCCCC(=O)OCC(CSC[C@H](N)C(=O)N[C@@H](CO)C(=O)N[C@@H](CCCCN)C(=O)N[C@@H](CCCCN)C(=O)N[C@@H](CCCCN)C(=O)N[C@@H](CCCCN)C(=O)NCCCCCC(=O)N[C@@H](CCCCN)C(=O)N[C@@H](CC(C)C)C(=O)N[C@H](C(=O)N[C@@H](Cc1ccccc1)C(=O)N[C@@H](Cc1ccccc1)C(=O)N[C@@H](Cc1ccc2ccccc2c1)C(=O)O)C(C)C)OC(=O)CCCCCCCCCCCCCCC (stereo partly drawn) | BV-2 | Western blot, refers to: NLRP3 over tubulin | concentration not given, unit not given | relative to: control | NLRP3 protein level | 2.06
O=S(=O)(Nc1ccc(OC(F)(F)F)cc1)N1CCCC(C2c3ccc(F)cc3CCc3cc(F)ccc32)C1 (stereo not drawn) | D341 | CellTiter | concentration not given, 72 h | – | cell proliferation | decreased
Cc1cc(Cl)cc(-c2ccnc3cc(CN4C(=O)C5C(C4=O)C5(C)C)sc23)c1C[C@@H]1CNCCO1 (stereo partly drawn) | CHP-212 resistant cells (pooled) | annexin V-PI flow cytometry | 0.1 µM, 48 h | – | apoptotic cells (early plus late) | 6.69% and 13% and 15.5%
CCC(=CCc1c(O)cc2c(c1O)C(=O)CC(c1ccccc1O)O2)CC (stereo not drawn) | HeLa | cell growth or viability, MTT | 0.938 µM, 48 h | – | inhibition | 1.51%
CC12CCCC(n3cc(C(=O)N4CCOCC4)nn3)(C1)C1CC(C)(C)C1CC2 (stereo not drawn) | HT-29 | cell growth or viability, CCK-8 | 50 µM | – | inhibition | 55%
CCC(=CCc1c(O)cc2c(c1O)C(=O)CC(c1c(O)cccc1OC)O2)CC (stereo not drawn) | HeLa | cell growth or viability, MTT | 25 µM, 48 h | – | inhibition | 24.8%
COc1ccccc1CNC[C@](O)(COCc1ccccc1)[C@@H]1CC[C@@H](C)C[C@H]1OCc1ccccc1 | A2780 | cell growth or viability, MTT | 10 µM, 72 h | – | inhibition | 90.1%
CNS(=O)(=O)Nc1nccc(Cc2c(C)c3ccc(Oc4ncccc4F)cc3oc2=O)c1F | JEG-3 | cell viability | 7 days | – | IC50 | > 1000 nM
CC[C@H](NC(=O)[C@H](CC(C)C)NC(=O)[C@H](CC(=O)O)NC(C)=O)C(=O)N[C@@H](CC(=O)O)C(=O)COC(=O)c1c(C)cccc1C | THP-1 cells, LPS-primed | pyroptosis, LDH release | 25 µM, LPS 1 µg/mL, 4 h, together with: nigericin 5 µM, 2 h | – | cell lysis | 89%
O=c1cc(Nc2cccc(O)c2)c2ccccc2o1 | COS-7 (untransfected) | – | 500 µM, unit not given | relative to: 3 µM ionomycin | calcium mobilisation signal | 2.7 ± 2.21
CC12CCCC(NS(=O)(=O)c3ccc(C(F)(F)F)cc3)(C1)C1CC(C)(C)C1CC2 (stereo not drawn) | HT-29 | cell growth or viability, CCK-8 | 10 µM | – | inhibition | < 50%
CSC(=NN=C(C)c1ccc(S(=O)(=O)N2CCC(C)CC2)cc1)N(C)C | MCF7 | annexin V/PI | concentration not given, 72 h, at IC50 | – | early apoptotic cells | 6.32%
CN1CCCNC(=O)c2cccc(c2)C(=O)NCCCN(C)CCCNc2cccc3c2C(=O)c2cccc(c2C3=O)NCCC1 | SAS | RNA-seq, refers to: FAM13A-AS1 mRNA | 1 µM, 6 h | relative to: untreated cells | log2 fold change | 3.25

Excerpt of the above:
Compound | cell line | test | conditions | scale | quantity | result
CC[C@H](NC(=O)[C@H](CC(C)C)NC(=O)[C@H](CC(=O)O)NC(C)=O)C(=O)N[C@@H](CC(=O)O)C(=O)COC(=O)c1c(C)cccc1C | THP-1 cells, LPS-primed | pyroptosis, LDH release | 25 µM, LPS 1 µg/mL, 4 h, together with: nigericin 5 µM, 2 h | – | cell lysis | 89%
O=c1cc(Nc2cccc(O)c2)c2ccccc2o1 | COS-7 (untransfected) | – | 500 µM, unit not given | relative to: 3 µM ionomycin | calcium mobilisation signal | 2.7 ± 2.21
